Measurements pooled from the literature.
Each line is one published result; not all experiments were run side by side. “And” joins repeats or separate records; there may be more than shown. Numbers after ± are the reported error.
ung: ung (Escherichia coli, UniProt P12295)
Chain of UniProt P12295 (whole entry, looked up): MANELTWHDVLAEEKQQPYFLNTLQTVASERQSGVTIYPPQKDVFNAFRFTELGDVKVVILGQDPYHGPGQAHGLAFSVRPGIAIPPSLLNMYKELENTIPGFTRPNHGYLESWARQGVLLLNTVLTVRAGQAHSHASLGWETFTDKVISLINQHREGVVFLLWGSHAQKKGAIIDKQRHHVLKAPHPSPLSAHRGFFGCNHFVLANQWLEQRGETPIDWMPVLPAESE
KDM1A: Lysine-specific histone demethylase 1A (KDM1A, Homo sapiens, UniProt O60341)
Rhomboid protease AarA: Rhomboid protease AarA (Providencia stuartii, UniProt P46116)
Chain of UniProt P46116 (whole entry, looked up): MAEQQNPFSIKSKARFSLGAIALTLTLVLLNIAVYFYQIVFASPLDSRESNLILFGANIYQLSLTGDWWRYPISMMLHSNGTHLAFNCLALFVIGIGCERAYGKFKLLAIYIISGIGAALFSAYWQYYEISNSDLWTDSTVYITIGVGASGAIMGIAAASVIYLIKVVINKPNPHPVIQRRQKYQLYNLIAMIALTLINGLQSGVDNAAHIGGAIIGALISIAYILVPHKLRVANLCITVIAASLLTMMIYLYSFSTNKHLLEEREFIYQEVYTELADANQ
POLQ helicase domain: DNA polymerase theta, helicase domain (POLQ, Homo sapiens, UniProt O75417)
Chain of UniProt O75417 (whole entry, looked up): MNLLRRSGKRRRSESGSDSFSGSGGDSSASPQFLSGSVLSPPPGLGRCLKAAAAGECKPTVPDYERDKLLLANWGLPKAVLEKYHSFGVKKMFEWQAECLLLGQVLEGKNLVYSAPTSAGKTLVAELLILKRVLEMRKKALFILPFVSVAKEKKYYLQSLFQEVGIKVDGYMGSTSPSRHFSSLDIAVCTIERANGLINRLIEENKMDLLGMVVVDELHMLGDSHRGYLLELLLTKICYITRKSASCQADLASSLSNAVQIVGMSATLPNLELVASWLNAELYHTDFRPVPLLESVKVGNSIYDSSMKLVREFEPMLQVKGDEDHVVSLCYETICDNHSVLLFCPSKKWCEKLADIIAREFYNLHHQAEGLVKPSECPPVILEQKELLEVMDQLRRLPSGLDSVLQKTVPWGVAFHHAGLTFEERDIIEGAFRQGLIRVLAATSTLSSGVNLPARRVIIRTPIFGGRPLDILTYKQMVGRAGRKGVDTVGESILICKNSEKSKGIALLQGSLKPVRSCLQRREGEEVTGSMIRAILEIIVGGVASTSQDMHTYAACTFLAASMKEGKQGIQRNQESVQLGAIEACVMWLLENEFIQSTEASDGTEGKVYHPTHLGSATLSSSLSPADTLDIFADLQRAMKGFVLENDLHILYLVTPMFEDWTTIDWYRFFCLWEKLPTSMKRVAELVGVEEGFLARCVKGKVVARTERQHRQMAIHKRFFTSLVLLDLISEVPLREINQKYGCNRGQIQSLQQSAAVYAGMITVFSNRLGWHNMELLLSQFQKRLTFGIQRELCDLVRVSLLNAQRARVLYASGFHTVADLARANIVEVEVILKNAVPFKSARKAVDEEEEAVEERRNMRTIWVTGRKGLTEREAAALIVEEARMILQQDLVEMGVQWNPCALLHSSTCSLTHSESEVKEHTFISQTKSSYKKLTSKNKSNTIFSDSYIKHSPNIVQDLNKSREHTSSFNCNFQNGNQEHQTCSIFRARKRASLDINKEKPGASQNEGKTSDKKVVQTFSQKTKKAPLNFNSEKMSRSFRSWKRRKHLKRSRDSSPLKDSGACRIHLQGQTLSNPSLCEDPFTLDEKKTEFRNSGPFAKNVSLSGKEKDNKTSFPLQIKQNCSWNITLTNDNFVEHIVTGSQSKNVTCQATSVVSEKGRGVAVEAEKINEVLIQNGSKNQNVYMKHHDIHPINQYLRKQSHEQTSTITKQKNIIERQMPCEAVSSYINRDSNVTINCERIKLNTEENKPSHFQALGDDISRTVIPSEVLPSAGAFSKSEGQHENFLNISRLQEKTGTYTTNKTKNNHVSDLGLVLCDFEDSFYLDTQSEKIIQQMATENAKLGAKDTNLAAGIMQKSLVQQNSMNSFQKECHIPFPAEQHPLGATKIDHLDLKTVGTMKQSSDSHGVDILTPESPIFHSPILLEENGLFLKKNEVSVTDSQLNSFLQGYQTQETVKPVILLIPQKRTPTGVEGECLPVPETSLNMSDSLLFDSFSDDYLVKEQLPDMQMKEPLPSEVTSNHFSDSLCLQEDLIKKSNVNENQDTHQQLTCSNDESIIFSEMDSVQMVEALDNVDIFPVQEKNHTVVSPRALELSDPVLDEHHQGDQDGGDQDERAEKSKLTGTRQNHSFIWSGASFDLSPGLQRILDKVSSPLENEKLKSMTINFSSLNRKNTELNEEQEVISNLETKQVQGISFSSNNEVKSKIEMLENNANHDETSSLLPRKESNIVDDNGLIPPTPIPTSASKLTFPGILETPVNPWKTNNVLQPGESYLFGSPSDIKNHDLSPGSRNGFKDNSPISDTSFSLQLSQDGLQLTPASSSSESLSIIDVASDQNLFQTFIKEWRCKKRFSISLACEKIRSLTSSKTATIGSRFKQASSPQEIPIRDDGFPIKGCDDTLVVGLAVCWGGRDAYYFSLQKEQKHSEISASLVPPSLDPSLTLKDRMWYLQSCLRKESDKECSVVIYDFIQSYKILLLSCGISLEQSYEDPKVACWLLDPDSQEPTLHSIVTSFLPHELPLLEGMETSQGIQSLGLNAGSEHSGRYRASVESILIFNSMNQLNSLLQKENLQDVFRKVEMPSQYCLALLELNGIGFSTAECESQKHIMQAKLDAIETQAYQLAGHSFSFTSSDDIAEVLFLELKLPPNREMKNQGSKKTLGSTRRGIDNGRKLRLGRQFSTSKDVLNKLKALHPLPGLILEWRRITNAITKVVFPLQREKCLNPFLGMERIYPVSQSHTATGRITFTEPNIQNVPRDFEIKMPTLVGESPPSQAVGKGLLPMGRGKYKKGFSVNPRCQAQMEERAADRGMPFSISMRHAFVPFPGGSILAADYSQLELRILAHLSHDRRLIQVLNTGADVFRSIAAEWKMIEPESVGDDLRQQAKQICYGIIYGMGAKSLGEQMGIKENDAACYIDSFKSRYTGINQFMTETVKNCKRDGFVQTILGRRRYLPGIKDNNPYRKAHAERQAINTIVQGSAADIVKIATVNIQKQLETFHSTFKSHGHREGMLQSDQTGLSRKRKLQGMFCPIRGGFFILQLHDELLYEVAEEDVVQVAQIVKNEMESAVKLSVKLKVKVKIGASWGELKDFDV
IL1RL2: Interleukin-1 receptor-like 2 (IL1RL2, Homo sapiens, UniProt Q9HB29)
Chain of UniProt Q9HB29 (whole entry, looked up): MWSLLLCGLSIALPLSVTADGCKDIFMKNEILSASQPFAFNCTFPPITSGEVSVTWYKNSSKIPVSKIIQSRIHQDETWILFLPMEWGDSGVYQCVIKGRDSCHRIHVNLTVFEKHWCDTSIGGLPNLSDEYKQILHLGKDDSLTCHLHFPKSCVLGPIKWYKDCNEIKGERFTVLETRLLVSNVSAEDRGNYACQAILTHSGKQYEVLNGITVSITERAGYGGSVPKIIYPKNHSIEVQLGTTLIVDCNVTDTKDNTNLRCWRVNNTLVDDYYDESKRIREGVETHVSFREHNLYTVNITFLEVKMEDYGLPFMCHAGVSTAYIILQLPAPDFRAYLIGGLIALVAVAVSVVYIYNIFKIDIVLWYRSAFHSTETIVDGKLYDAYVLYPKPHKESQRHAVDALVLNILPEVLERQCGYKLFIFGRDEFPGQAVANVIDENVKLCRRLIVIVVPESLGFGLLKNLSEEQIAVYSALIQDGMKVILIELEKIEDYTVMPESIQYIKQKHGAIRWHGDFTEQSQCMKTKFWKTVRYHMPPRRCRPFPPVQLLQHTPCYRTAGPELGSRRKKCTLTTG
Chain of UniProt P10721 (whole entry, unmodified, looked up): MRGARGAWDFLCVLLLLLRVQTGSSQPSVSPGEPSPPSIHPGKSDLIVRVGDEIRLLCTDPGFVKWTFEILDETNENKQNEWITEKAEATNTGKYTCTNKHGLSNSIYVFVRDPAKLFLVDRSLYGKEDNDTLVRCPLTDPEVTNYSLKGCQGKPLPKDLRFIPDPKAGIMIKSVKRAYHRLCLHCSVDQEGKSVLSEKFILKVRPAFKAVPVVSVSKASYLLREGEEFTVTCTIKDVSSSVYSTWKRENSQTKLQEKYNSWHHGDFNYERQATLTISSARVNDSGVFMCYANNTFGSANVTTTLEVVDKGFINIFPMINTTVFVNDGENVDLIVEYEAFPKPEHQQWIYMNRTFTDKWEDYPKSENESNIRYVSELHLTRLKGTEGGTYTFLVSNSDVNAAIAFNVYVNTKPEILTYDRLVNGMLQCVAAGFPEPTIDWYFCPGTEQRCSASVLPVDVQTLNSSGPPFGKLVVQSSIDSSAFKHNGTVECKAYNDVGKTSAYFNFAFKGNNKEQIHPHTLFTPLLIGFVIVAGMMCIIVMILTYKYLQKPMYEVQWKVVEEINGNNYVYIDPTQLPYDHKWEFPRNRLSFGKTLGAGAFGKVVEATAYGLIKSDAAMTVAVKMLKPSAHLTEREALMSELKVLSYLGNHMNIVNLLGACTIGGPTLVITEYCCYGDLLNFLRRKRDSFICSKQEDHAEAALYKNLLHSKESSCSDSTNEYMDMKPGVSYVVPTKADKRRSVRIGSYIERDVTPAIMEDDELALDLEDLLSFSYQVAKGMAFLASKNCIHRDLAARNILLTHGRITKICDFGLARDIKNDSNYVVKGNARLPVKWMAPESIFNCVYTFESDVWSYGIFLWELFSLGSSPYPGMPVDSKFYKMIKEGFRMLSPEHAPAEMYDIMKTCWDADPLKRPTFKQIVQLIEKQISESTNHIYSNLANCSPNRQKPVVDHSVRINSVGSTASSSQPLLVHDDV
Chain of UniProt P45983 (whole entry, looked up): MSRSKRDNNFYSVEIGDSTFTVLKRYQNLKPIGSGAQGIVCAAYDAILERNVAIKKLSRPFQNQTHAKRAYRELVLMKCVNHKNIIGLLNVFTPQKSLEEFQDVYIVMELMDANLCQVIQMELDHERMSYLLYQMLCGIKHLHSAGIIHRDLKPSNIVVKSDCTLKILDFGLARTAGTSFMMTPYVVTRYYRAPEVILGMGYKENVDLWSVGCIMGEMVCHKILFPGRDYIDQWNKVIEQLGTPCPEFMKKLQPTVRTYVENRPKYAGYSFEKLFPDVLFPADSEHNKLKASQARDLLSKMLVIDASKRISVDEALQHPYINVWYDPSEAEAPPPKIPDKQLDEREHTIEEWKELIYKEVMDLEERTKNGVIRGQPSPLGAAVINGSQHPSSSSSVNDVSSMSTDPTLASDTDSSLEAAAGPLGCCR

`CCC1(O)CCCN(C(=O)c2ccc(-c3ccccc3C(F)(F)F)cc2)C1` (stereo not shown) has a remaining activity of 108 ± 3% (ung; enzyme activity, inhibitor; concentration not given, counter-screen).
The remaining activity of `COC(=O)[C@]1(C(C)C)C=C(C(=O)Nc2cccc(C(=O)Nc3ccc(Nc4nccc(-c5cccnc5)n4)c(C)c3)c2)C(=O)CC1` is reported as 0.0759 (MAPK8 (Homo sapiens, UniProt P45983); kinase activity, inhibitor; 133.3 µM, unit not given, added: 10 mM glutathione; reference: no inhibitor).
For `Cc1ncsc1-c1ccc(C(C)NC(=O)C2CC(O)CN2C(=O)C(NC(=O)CCCCCCCCCCN2CCCC(Nc3ncc(Cl)c(Nc4ccccc4S(=O)(=O)C(C)C)n3)C2)C(C)(C)C)cc1` (stereo not shown), “log2 fold change” read -1.04 (22Rv1; RNA-seq, refers to: SENP1 mRNA; concentration not given; reference: DMSO).
`CN(C)C(=O)c1cccc([C@@H]2C[C@H]2NC2CCC2)c1` gave a remaining activity of 92.9% (KDM1A; demethylase activity, inhibitor; 0.2058 µM, added: H3K4me2 peptide).
The remaining activity of `Cc1ccc(C2CC(=O)N2S(=O)(=O)c2cccc(Cl)c2)cc1` (stereo not shown) is reported as 98% (Rhomboid protease AarA; substrate cleavage, gel-based; 100 µM; reference: DMSO).
`CNS(=O)(=O)Nc1nccc(Cc2c(C)c3ccc(Oc4ncccc4F)cc3oc2=O)c1F` gave an IC50 of over 1 µM (OV7; cell viability; 7 days).
`COc1ccccc1-c1ccncc1C(=O)Nc1ccc(OCc2ccc(Cl)cc2)nn1` has a remaining activity of 93% (POLQ helicase domain; ATPase activity, ADP-Glo; 0.95 µM; reference: 0 µM cpd).
With `C=C(NC(=O)c1csc(-c2nc3c(cc2O)-c2nc(cs2)C(=O)NC(C(C)O)C(=O)NC(=C(C)OC)c2nc(cs2)C(=O)NC2c4nc(cs4)C(=O)NC(COC(=O)c4c5c6c(cccc6n4O)COC(=O)C(OC4CC(C)(O)C(N(C)C)C(C)O4)C2OC5)c2nc-3cs2)n1)C(N)=O` (stereo not shown) the clearance was 1.87 mL/min/kg (cynomolgus monkey, female, plasma; intravenous infusion, 3 mg/kg single dose).
The remaining activity of `CCC1(O)CCCN(C(=O)c2cccc(C#N)c2)C1` (stereo not shown) is reported as 92.4 ± 3.3% (ung; enzyme activity, inhibitor; concentration not given, counter-screen).
The remaining activity of `COc1cc(Nc2nc(C)cc(-c3cnn4nc(OC)ccc34)n2)cc(C(F)(F)F)c1` is reported as 89% (KIT (Homo sapiens, UniProt P10721); inhibitor; 1 µM; reference: control).
`COc1ccccc1-c1ccncc1C(=O)Nc1nnc(OCc2ccc(Cl)cc2)s1` gave a remaining activity of 38% (POLQ helicase domain; ATPase activity, ADP-Glo; 0.12 µM, added: ATP 100 µM).
For `O=C1CC(c2ccccc2)N1C(=O)Oc1ccccc1` (stereo not shown), the remaining activity was 97% (Rhomboid protease AarA; enzyme activity, inhibitor; 100 µM).
`C=CC(=O)Nc1cccc(Cn2ncc3cnc(Nc4cnn(CCOC)c4)nc32)c1` — result for “percent of control”: 100% (NEK1 human; binding, KINOMEscan; 100 nM; lower = stronger binding).
`O=C1CC(c2ccccc2Cl)N1S(=O)(=O)c1cccc(Cl)c1` (stereo not shown) has a remaining activity of 59% (Rhomboid protease AarA; enzyme activity, inhibitor; 100 µM).
The remaining activity of `Cc1ccc(C[C@H](NC(=O)CN2CCCc3cc4cc(C(=O)NCCNC(=O)CCCC[C@@H]5SC[C@@H]6NC(=O)N[C@@H]65)c(=O)oc4cc32)C(=O)NC/C=C/S(=O)(=O)c2ccccc2)cc1` is reported as 3% (Procathepsin L (CTSL, Homo sapiens, UniProt P07711); inhibitor; 5 µM, 60 min, added: Z-Phe-Arg-pNA; reference: uninhibited control).
With `COc1ccc(-c2ccc(C(=O)N(C)CCO)cc2)c(OC)c1` the remaining activity was 105 ± 3% (ung; enzyme activity, inhibitor; concentration not given, counter-screen).
The remaining activity of `CC(C)[C@@H]1NC(=O)[C@H](Cc2ccccc2)NC(=O)CSC[C@@H](C(N)=O)NC(=O)[C@H](CCC(=O)O)NC(=O)[C@H](CO)NC(=O)[C@H](Cc2c[nH]c3cccc(Cl)c23)NC(=O)[C@H](C2CCCCC2)NC(=O)[C@H](C(C)C)NC(=O)[C@H](Cc2ccc(O)cc2)NC(=O)[C@H](CC(=O)O)NC(=O)[C@H](Cc2c[nH]c3ccccc23)NC(=O)[C@H](Cc2ccc(N)nc2)NC(=O)[C@H](Cc2c[nH]c3ccc(Cl)cc23)NC(=O)[C@H](CCC(=O)O)NC1=O` is reported as 102% (IL1RL2; reporter gene (SEAP), inhibitor, HEK-Blue IL-36R reporter; HEK-Blue IL-36R cells; 0.14 µM, 6 h, added: IL-36γ 3 ng/mL).
For `CC(C)C[C@H](NC(=O)[C@H](Cc1ccc(O)cc1)NC(=O)[C@@H](CCCNC(=N)N)NC(=O)[C@@H](CO)NC(=O)[C@H](Cc1ccccc1)NC(=O)[C@H](CC1CCCCC1)NC(=O)[C@H](CC(=O)O)NC(=O)CN1CCN(CC(=O)O)CCN(CC(=O)O)CCN(CC(=O)O)CC1)C(=O)N[C@@H](Cc1c[nH]c2ccccc12)C(=O)N[C@@H](CO)C(=O)O` [copper-64 labelled], the activity concentration was 5400 Bq/mL and 531 Bq/mL and 3040 Bq/mL (human, gall bladder; concentration not given, 1 h).
`CNC(=O)c1cccc([C@@H]2C[C@H]2NC2CCC2)c1` (racemic) gave a remaining activity of 87.7% (KDM1A; demethylase activity, inhibitor; 0.6173 µM, added: H3K4me2 peptide).
For `CNC(=O)C[C@H](Cc1ccc(C#N)cc1)NC(=O)c1cc(-c2ccc(CN[C@H](C)c3ccc(C)cc3)o2)ccc1Cl`, the remaining activity was 111% (TRPM7 (Homo sapiens, UniProt Q96QT4); enzyme activity, KinaseProfiler panel; 1 µM).
`CN1CCCNC(=O)c2cccc(c2)C(=O)NCCCN(C)CCCNc2cccc3c2C(=O)c2cccc(c2C3=O)NCCC1` — result for “log2 fold change”: -0.411 (SAS; RNA-Seq, refers to: POLR2A mRNA; 1 µM, 6 h; reference: untreated cells).
The remaining activity of `C[C@](C(=O)NC1CCOCC1)(c1cncnc1)N(C(=O)[C@H](F)Cl)c1ccc(OC(F)(F)Cl)cc1` is reported as 103% (Plasma kallikrein (KLKB1, Homo sapiens, UniProt P03952); enzyme activity, inhibitor; 10 µM).
With `Cc1cccc(-c2ccc3nc(NC(=O)C4CCCO4)nn3c2)c1` (stereo not shown) the remaining activity was 93% (AMPK; enzyme activity; 10 µM).
With `O=C(Nc1ccccc1)c1cccc([C@@H]2C[C@H]2NC2CCC2)c1` (racemic) the remaining activity was 96.6% (KDM1A; demethylase activity, inhibitor, Amplex Red; 0.002743 µM, added: H3K4me2 peptide; reference: vehicle).
For `O=C1CC(c2ccc(Br)cc2)N1S(=O)(=O)c1cccc(Cl)c1` (stereo not shown), the remaining activity was 58% (Rhomboid protease AarA; substrate cleavage, gel-based; 100 µM; reference: DMSO).
With `O=C(Nc1cccc([C@@H]2C[C@H]2NC2CCC2)c1)c1ccccc1` the remaining activity was 97.8% (KDM1A; demethylase activity, inhibitor; 0.06859 µM, added: H3K4me2 peptide).
`Nc1ncc(-c2cc(-c3cnn(CC(F)(F)F)c3)ncc2F)nc1C(=O)NC1CNCC(F)C1` (stereo not shown) gave a remaining activity of 108% (TESK2 (Homo sapiens, UniProt Q96S53); enzyme activity; 1 µM; reference: DMSO control).
`CC1C(=O)N(S(=O)(=O)c2ccc(Cl)cc2)C1c1ccccc1` (stereo not shown) has a remaining activity of 60% (Rhomboid protease AarA; enzyme activity, inhibitor; 100 µM).
`CN(Cc1cc(C2CC2)on1)C(=O)c1cccc(-c2ccc3c(c2)CCO3)c1` has a remaining activity of 87.4% and 83.9% (Acetyl-CoA synthetase (Cryptococcus neoformans, UniProt J9VFT1); enzyme activity, inhibitor, coupled pyrophosphate; 50 µM).
Under “log2 fold change”, `COC1CN([C@H]2CC[C@H]([C@@]3(C)Oc4c(Cl)cc(C(=O)NCc5c(SC)cc(C)[nH]c5=O)c(C)c4O3)CC2)C1` is recorded as 0.0103 (RNA-seq, refers to: TMEM37 mouse homolog; mouse, HT-1376 xenograft, whole blood; dose not given; reference: vehicle).
The remaining activity of `COC(=O)[C@@]1(C)C=C(C(=O)Nc2cccc(C(=O)Nc3ccc(Nc4nccc(-c5cccnc5)n4)c(C)c3)c2)C(=O)CC1` is reported as 0.947 (MAPK1 (Homo sapiens, UniProt P28482); kinase activity, inhibitor; 0.06097 µM, unit not given; reference: no inhibitor).
`Cn1cc(-c2ccc3ccccc3c2)c2ccc(Cl)nc21` gave a remaining activity of 44.2% (Gag-Pol polyprotein, integrase (gag-pol, Human immunodeficiency virus type 1 group M subtype B, UniProt P04585); strand transfer; HIV-1; 10 µM).
`C=CC(=O)N1CCCC(n2c(=O)c3ncccc3n(Cc3ccc(Oc4ccccc4)cc3)c2=O)C1` (stereo not shown) has a remaining activity of 77% (ABL1 (Homo sapiens, UniProt P00519); kinase activity; 1 µM).
The IC50 of `Cc1nn(-c2cccc(N)c2)c(=O)c2cnc(Nc3ccc(N4CCNCC4)cc3)nc12` is reported as over 10 µM (MATK (Homo sapiens, UniProt P42679); kinase activity, inhibitor, SelectScreen kinase profiling).
`Cc1cnc(NC(=O)c2cccc([C@@H]3C[C@H]3NC3CCC3)c2)s1` has a remaining activity of 83% (KDM1A; demethylase activity, inhibitor, Amplex Red; 0.07407 µM, added: H3K4me2 peptide; reference: vehicle).
The remaining activity of `O=C=[N][Ru-4]123([n]4c5ccc(O)cc5c5c6c(c7cc(F)c[n+]1c7c54)C(=O)NC6=O)[S+]1CC[S+]2CC[S+]3CC1` (stereo not shown) is reported as 73% (KIT (Homo sapiens, UniProt P10721, V654A); enzyme activity; 100 nM, human enzyme, added: 10 µM ATP; reference: untreated).
The remaining activity of `COC(=O)c1cccc([C@@H]2C[C@H]2NC2CCC2)c1` is reported as 41.4% (KDM1A; demethylase activity, inhibitor; 16.67 µM, added: H3K4me2 peptide).
The remaining activity of `Cc1ccc(S(=O)(=O)N2C(=O)CC2c2ccccc2)cc1` (stereo not shown) is reported as 77% (Rhomboid protease AarA; enzyme activity, inhibitor; 100 µM).
With `Cc1nnc(NC(=O)c2ccc([C@@H]3C[C@H]3NC3CCC3)cc2)s1` (racemic) the remaining activity was 81.5% (KDM1A; demethylase activity, inhibitor; 0.06859 µM, added: H3K4me2 peptide).
The remaining activity of `N#Cc1cnc2sc(C(=O)O)cc2c1N1CCc2[nH]nc(C(=O)N[C@@H](CC(=O)NCCOCCN3CCOCC3)c3cccc(Br)c3)c2C1` is reported as 39.5% (IL1RL2; reporter gene (SEAP), inhibitor, HEK-Blue IL-36R reporter; HEK-Blue IL-36R cells; 3.7 µM, 6 h, added: IL36A 0.01 ng/mL).

A few entries again:
`CNC(=O)c1cccc([C@@H]2C[C@H]2NC2CCC2)c1` (racemic) gave a remaining activity of 87.7% (KDM1A; demethylase activity, inhibitor; 0.6173 µM, added: H3K4me2 peptide).
`Cc1cnc(NC(=O)c2cccc([C@@H]3C[C@H]3NC3CCC3)c2)s1` has a remaining activity of 83% (KDM1A; demethylase activity, inhibitor, Amplex Red; 0.07407 µM, added: H3K4me2 peptide; reference: vehicle).
For `CNC(=O)C[C@H](Cc1ccc(C#N)cc1)NC(=O)c1cc(-c2ccc(CN[C@H](C)c3ccc(C)cc3)o2)ccc1Cl`, the remaining activity was 111% (TRPM7 (Homo sapiens, UniProt Q96QT4); enzyme activity, KinaseProfiler panel; 1 µM).
With `C=C(NC(=O)c1csc(-c2nc3c(cc2O)-c2nc(cs2)C(=O)NC(C(C)O)C(=O)NC(=C(C)OC)c2nc(cs2)C(=O)NC2c4nc(cs4)C(=O)NC(COC(=O)c4c5c6c(cccc6n4O)COC(=O)C(OC4CC(C)(O)C(N(C)C)C(C)O4)C2OC5)c2nc-3cs2)n1)C(N)=O` (stereo not shown) the clearance was 1.87 mL/min/kg (cynomolgus monkey, female, plasma; intravenous infusion, 3 mg/kg single dose).
